Assay results collected from several papers.
A part holds a random share of what one study measured. “And” joins repeats or separate records; there may be more than shown.
UniProt Q52WX2, sequence (whole entry, looked up): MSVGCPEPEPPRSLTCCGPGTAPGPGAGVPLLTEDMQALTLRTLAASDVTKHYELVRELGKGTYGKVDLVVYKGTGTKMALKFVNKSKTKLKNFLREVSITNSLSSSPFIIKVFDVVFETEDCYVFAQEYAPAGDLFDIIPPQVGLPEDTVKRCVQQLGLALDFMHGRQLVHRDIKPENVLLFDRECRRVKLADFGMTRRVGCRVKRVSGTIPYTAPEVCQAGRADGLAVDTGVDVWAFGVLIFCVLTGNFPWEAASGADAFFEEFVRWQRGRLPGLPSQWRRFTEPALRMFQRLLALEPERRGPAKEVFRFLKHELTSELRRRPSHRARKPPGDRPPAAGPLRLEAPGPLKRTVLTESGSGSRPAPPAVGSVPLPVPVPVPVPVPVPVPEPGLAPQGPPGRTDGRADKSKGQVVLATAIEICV
UniProt P08631, sequence (whole entry, looked up): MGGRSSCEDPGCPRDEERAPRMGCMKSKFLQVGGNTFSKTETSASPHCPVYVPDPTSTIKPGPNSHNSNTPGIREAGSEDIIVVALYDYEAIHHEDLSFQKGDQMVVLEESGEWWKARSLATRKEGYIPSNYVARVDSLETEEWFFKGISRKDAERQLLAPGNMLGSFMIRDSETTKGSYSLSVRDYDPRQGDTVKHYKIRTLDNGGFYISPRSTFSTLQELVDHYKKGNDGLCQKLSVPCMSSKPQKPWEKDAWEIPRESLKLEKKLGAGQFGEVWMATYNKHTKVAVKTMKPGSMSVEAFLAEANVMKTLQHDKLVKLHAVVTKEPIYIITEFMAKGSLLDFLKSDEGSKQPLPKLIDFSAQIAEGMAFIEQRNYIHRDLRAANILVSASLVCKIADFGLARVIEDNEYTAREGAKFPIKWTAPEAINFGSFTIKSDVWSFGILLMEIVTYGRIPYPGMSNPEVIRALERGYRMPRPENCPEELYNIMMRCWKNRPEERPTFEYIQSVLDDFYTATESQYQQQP
UniProt P49841, sequence (whole entry, looked up): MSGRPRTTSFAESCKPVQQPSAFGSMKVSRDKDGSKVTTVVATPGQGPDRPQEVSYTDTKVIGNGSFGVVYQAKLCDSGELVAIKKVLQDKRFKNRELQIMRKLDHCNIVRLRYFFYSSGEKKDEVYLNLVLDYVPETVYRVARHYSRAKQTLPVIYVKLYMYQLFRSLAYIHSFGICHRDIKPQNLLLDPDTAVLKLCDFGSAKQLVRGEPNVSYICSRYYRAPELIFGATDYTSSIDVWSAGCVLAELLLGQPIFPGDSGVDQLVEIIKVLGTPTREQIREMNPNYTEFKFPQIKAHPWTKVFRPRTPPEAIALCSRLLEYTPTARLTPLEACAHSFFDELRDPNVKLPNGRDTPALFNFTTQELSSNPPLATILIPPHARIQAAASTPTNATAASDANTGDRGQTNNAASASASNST
UniProt Q99759, sequence (whole entry, looked up): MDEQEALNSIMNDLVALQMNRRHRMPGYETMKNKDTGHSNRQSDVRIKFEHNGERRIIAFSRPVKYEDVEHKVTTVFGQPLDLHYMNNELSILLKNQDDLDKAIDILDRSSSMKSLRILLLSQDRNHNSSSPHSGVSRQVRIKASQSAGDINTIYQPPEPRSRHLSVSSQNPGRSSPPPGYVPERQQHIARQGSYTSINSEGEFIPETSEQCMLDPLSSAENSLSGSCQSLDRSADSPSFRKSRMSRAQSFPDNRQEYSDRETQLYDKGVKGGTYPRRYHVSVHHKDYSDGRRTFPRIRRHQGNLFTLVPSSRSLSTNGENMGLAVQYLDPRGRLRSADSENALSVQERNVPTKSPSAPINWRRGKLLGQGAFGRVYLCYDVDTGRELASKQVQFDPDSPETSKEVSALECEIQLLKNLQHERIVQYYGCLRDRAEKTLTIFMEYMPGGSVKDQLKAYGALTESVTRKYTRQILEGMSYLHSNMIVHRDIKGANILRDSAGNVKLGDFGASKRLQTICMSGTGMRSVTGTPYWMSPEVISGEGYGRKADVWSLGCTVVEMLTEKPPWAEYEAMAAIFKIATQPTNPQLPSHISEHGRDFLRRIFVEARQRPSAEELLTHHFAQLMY
UniProt P42336, sequence (whole entry, unmodified, looked up): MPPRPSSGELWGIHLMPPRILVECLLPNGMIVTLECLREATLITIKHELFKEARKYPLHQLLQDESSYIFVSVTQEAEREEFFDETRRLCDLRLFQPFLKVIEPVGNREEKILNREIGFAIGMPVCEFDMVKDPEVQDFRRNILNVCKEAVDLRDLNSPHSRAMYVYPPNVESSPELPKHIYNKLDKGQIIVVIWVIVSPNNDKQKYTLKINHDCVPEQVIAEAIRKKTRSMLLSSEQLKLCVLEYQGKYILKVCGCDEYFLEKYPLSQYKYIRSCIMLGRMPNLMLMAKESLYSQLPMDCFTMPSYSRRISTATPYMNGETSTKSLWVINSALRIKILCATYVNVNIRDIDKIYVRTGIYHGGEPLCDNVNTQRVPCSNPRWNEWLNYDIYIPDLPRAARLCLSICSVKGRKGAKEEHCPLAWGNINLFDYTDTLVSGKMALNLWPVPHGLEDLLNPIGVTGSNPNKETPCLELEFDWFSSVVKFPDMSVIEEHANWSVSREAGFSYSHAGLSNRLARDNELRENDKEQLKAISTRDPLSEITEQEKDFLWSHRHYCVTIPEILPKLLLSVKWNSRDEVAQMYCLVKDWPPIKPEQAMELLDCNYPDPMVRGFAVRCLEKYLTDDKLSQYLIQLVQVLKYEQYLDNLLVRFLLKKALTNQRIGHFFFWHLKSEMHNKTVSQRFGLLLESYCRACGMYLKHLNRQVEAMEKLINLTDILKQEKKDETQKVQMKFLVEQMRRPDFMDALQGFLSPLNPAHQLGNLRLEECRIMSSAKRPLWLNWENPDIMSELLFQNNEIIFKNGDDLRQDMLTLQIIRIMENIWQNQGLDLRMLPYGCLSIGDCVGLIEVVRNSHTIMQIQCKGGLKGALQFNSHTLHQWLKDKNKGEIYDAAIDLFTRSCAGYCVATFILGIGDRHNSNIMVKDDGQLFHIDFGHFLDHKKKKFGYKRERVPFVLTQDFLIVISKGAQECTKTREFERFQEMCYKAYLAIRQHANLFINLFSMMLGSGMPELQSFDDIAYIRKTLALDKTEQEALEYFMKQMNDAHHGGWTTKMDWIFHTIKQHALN
UniProt Q8N752, sequence (whole entry, looked up): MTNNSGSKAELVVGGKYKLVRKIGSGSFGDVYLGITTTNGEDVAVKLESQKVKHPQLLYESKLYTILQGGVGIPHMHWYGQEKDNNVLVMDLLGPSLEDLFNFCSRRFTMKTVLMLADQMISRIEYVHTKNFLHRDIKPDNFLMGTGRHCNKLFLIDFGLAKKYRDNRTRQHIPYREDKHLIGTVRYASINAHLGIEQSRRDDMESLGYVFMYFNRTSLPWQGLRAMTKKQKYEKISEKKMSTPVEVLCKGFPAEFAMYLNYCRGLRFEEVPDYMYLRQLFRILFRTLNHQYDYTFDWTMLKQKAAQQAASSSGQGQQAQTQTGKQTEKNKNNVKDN

Block 1 — effect on: binding; concentration: 1 µM
SMILES: CN1CCN(C(=O)c2ccc(NC(=O)Nc3ccc(N(C)c4ccnc(Nc5ccc(CS(C)(=O)=O)cc5)n4)cc3)cc2)CC1
target | assay | remaining binding
PAK1 (Homo sapiens, UniProt Q13153) | – | 92%
PAK6 (Homo sapiens, UniProt Q9NQU5) | – | 92%
PAK4 (Homo sapiens, UniProt O96013) | – | 46%
PRKD3 (Homo sapiens, UniProt O94806) | – | 100%
JAK1 (Homo sapiens, UniProt P23458) | – | 13%
MAP4K4 (Homo sapiens, UniProt O95819) | competition with immobilised ligand | 33%
CSNK1G3 (Homo sapiens, UniProt Q9Y6M4) | – | 100%
BRSK1 (Homo sapiens, UniProt Q8TDC3) | – | 100%
CSF1R (Homo sapiens, UniProt P07333) | competition with immobilised ligand | 0%
OXSR1 (Homo sapiens, UniProt O95747) | – | 98%
PTK6 (Homo sapiens, UniProt Q13882) | competition with immobilised ligand | 95%

Block 2 — effect on: cell-free assay; technique: competition with immobilised ligand; concentration: 1 µM
SMILES: O=C(NC[C@@H]1[C@H]2CN(C(=O)OCc3cc(C(F)(F)F)cc(C(F)(F)F)c3)C[C@@H]12)c1ccc2[nH]nnc2c1
target | remaining binding
NEK3 (Homo sapiens, UniProt P51956) | 100%
Receptor-type tyrosine-protein kinase FLT3, autoinhibited (FLT3, Homo sapiens, UniProt P36888) | 91%
STK32C (Homo sapiens, UniProt Q86UX6) | 90%
WNK3 (Homo sapiens, UniProt Q9BYP7) | 100%
CSNK1A1L (Homo sapiens, UniProt Q8N752) | 86%
SRC (Homo sapiens, UniProt P12931) | 100%
EPHA7 (Homo sapiens, UniProt Q15375) | 96%
HCK (Homo sapiens, UniProt P08631) | 100%
MAP3K6 (Homo sapiens, UniProt O95382) | 81%
LIM domain kinase 2 (LIMK2, Homo sapiens, UniProt P53671) | 83%
SBK1 (Homo sapiens, UniProt Q52WX2) | 97%
MAP3K1 (Homo sapiens, UniProt Q13233) | 71%
MAP3K4 (Homo sapiens, UniProt Q9Y6R4) | 91%
MAP3K3 (Homo sapiens, UniProt Q99759) | 94%
MYLK4 (Homo sapiens, UniProt Q86YV6) | 100%
PIK3CA (Homo sapiens, UniProt P42336, Q546K) | 78%
MAPK11 (Homo sapiens, UniProt Q15759) | 100%
CDK17 (Homo sapiens, UniProt Q00537) | 100%
GSK3B (Homo sapiens, UniProt P49841) | 98%
MAP2K1 (Homo sapiens, UniProt Q02750) | 83%
EGFR (Homo sapiens, UniProt P00533, T790M) | 78%

Block 3 — sample: plasma
SMILES: O=C1CCC(N2Cc3cc(C4CCN(Cc5ccccc5)CC4)ccc3C2=O)C(=O)N1 (stereo not drawn)
test system | conditions | plasma concentration
Sprague Dawley rat, male | intravenous, 1 mg/kg, 0.083 h | 123 ng/mL and 121 ng/mL
male ICR mice | intravenous, 1 mg/kg, 6 h | 10.7 ng/mL
ICR mouse, male | oral, 3 mg/kg, 2 h | 83.6 ng/mL and 122 ng/mL
male ICR mice | intravenous, 1 mg/kg, 8 h | 6.93 ng/mL
ICR mouse, male | intravenous, 1 mg/kg, 0.25 h | 116 ng/mL and 160 ng/mL
male Sprague Dawley rats | oral, 3 mg/kg, 1 h | 37.2 ng/mL
rat | oral, 3 mg/kg, 24 h, below limit of quantitation | not detected
male ICR mice | intravenous, 1 mg/kg, 0.25 h | 131 ng/mL
Sprague Dawley rat, male | oral, 3 mg/kg, 8 h | 6.98 ng/mL and 7.1 ng/mL
rat Sprague Dawley male | intravenous, 1 mg/kg, 1 h | 68.7 ng/mL and 62.2 ng/mL
male ICR mice | oral, 3 mg/kg, 0.25 h | 221 ng/mL
male ICR mice | oral, 3 mg/kg, 6 h | 9.95 ng/mL

Block 4 — effect on: enzyme activity; action: inhibitor; concentration: 0.5 µM; relative to: control
Target: RAF proto-oncogene serine/threonine-protein kinase (RAF1, Homo sapiens, UniProt P04049)
UniProt P04049, sequence (whole entry, looked up): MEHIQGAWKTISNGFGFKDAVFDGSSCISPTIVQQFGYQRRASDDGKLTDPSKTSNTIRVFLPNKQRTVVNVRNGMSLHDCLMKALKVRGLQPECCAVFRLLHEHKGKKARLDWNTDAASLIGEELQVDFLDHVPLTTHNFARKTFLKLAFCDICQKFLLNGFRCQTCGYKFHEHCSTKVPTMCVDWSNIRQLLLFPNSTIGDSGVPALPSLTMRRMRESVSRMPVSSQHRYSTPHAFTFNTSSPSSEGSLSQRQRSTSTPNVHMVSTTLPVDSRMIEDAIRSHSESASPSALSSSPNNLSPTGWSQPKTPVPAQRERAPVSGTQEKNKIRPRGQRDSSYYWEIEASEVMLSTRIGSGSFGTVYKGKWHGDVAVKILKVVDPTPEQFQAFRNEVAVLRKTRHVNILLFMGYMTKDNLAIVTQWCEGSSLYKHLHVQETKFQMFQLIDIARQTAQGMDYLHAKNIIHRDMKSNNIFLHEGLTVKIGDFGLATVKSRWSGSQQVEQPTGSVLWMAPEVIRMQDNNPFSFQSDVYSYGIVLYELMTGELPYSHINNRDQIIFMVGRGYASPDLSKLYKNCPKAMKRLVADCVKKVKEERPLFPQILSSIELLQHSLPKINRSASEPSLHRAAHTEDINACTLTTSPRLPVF
Compound | remaining activity [%]
CO[C@H]1C[C@@H]2CC[C@@H](C)[C@@](O)(O2)C(=O)C(=O)N2CCCC[C@H]2C(=O)O[C@H]([C@H](C)C[C@@H]2CC[C@@H](O)[C@H](OC)C2)CC(=O)[C@H](C)/C=C(\C)[C@@H](O)[C@@H](OC)C(=O)[C@H](C)C[C@H](C)/C=C/C=C/C=C/1C | 97.2
C#Cc1cccc(Nc2ncnc3cc(OCCOC)c(OCCOC)cc23)c1 | 93.7
Cc1ccc(Nc2nccc(N(C)c3ccc4c(C)n(C)nc4c3)n2)cc1S(N)(=O)=O | 9.43
Nc1[nH]nc2nc3ccccc3nc12 | 94.4
Nc1ccc2ncnc(NCCc3ccc(Oc4ccccc4)cc3)c2c1 | 98.2
COc1ccc(OC)c2c(=S)c3ccccc3[nH]c12 | 88.2
O=c1c2ccccc2[nH]c(=S)n1CCN1CCC(=C(c2ccc(F)cc2)c2ccc(F)cc2)CC1 | 96.7
Cc1nc(-c2ccccc2)c(-c2ccncc2)o1 | 92.6
CNC(=O)c1cc(Oc2ccc(NC(=O)Nc3ccc(Cl)c(C(F)(F)F)c3)cc2)ccn1 | 1.35
Cc1cccc(-c2[nH]c(C(C)(C)C)nc2-c2ccc3c(c2)OCO3)n1 | 86.2
NCCNc1ncc(C(N)=O)c(Nc2cccc(C(F)(F)F)c2)n1 | 79
COc1cc2ncnc(Nc3ccc(F)c(Cl)c3)c2cc1OCCCN1CCOCC1 | 90.9
COc1ccc(CNC(=O)Nc2ncc([N+](=O)[O-])s2)cc1 | 94
O=C(Nc1cccc(Nc2cc(Nc3cccc(C(F)(F)F)c3)ncn2)c1)C1CC1 | 98.4
OCC(O)CCON=C1C(c2c(O)[nH]c3ccccc23)=Nc2ccccc21 (stereo not drawn) | 100
O=C1NC(=O)C(c2cn(CCCn3ccnc3)c3ccccc23)=C1Nc1ccccc1 | 105

Some of these lines once more (block 2):
target | remaining binding
NEK3 (Homo sapiens, UniProt P51956) | 100%
CDK17 (Homo sapiens, UniProt Q00537) | 100%
EGFR (Homo sapiens, UniProt P00533, T790M) | 78%
SRC (Homo sapiens, UniProt P12931) | 100%
WNK3 (Homo sapiens, UniProt Q9BYP7) | 100%
HCK (Homo sapiens, UniProt P08631) | 100%
MAP3K6 (Homo sapiens, UniProt O95382) | 81%
